Experimental data of several laboratories.
Each numbered part is a random draw from the data of one study; scales do not carry over between parts.

Sample 1
Target: Sal-like protein 4, full length isoform B (SALL4, Homo sapiens, UniProt Q9UJQ4-2, residues 1-616)
Technique: universal PBM
Molecule type: double-stranded DNA, one strand shown
Medium: in vitro
Tested at: not given
Setting: 8-mer, flanks averaged, mean of replicates
Direction: higher = stronger binding
Target sequence (chain): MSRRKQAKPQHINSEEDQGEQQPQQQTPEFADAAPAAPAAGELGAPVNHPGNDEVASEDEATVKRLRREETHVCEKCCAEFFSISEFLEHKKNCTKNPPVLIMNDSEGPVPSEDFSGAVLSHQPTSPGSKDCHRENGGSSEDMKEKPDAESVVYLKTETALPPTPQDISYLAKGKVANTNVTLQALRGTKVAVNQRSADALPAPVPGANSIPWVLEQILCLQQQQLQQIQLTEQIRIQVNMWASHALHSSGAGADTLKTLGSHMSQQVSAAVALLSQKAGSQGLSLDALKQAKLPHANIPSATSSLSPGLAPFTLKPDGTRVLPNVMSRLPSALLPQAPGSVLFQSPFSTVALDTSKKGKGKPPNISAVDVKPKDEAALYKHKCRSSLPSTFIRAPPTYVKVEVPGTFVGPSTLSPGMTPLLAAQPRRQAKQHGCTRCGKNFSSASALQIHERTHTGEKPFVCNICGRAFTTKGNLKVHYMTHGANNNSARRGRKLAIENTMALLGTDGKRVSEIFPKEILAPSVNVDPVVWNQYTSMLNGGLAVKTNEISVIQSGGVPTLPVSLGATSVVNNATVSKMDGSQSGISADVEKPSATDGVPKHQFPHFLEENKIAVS
| Strand | E-score |
| --- | --- |
| CTCGTATC | 0.0391 |
| ACCGCTAT | 0.00194 |
| GTTAACTA | 0.199 |
| TAGTGCCA | -0.172 |
| AGGTCAAA | 0.0174 |

Sample 2
Target: Phosphate system positive regulatory protein PHO4, full length, GST-tagged (PHO4, Saccharomyces cerevisiae, UniProt P07270, residues 1-312)
Technique: competition protein-binding microarray
Molecule type: double-stranded DNA, one strand shown
Medium: in vitro
Tested at: 2 µM
Setting: whole 60-bp probe, lowest competitor level
Added: Cbf1 competitor, 0.05 µM
Direction: higher = stronger binding
Shared flanks, not repeated: … GTCTTGATTCGCTTGACGCTGCTG
Construct (chain): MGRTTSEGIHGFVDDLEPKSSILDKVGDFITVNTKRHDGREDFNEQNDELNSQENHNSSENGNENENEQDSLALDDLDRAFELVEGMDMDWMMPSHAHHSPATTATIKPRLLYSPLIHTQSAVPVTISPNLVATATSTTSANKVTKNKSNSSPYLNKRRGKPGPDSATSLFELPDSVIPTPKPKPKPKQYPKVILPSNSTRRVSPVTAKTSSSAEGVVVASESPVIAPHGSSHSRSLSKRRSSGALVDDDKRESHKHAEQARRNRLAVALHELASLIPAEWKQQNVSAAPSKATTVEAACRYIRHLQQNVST
| Strand | fluorescence intensity [a.u.] |
| --- | --- |
| TAATTAAGGCAATGCCAGGTGATAAAGTTAAGGTTC | 3820 |
| CTAACGAAGGTTTGGGATGTGGGTGACAAGCCAAGT | 4480 |
| GGGATCGCTATACTCCACGTGAAGTGACGCCTTGGA | 12000 |
| CTAACGAAGGTTTGAGCCGTGGGTGACAAGCCAAGT | 4260 |
| CGGGGTTAAGTTTGTCTTGTGGGTGGCTTGCAGCAG | 5270 |

Sample 3
Target: Interferon regulatory factor 5, full length, phosphomimetic (IRF5, Homo sapiens, UniProt Q13568-2, residues 1-514, K96S/S451D/S453D/S456D/S462D)
Technique: protein-binding microarray
Molecule type: double-stranded DNA, one strand shown
Medium: in vitro
Tested at: 250 nM
Setting: 60-bp whole probe
Added: salmon DNA 0.4 mg/ml
Relative to: random background probes
Direction: higher = stronger binding
Shared flanks, not repeated: GCCTAGCAC … GTCTTGATTCGCTTGACGCTGCTG
| Strand | log fluorescence [z-score] |
| --- | --- |
| CTGGCTGGGGTGGTGGCAGTGTGCTAG | -0.651 |
| TCATTCATGAAATTTTAAACTGTGCTA | 0.957 |
| GACGATATCAGAATGGAGACGTGCTAG | 0.481 |
| GACGGTATCCTTCTCATGACGTGCTAG | 0.308 |
| TTTGGTTTCCTTCTCCTTTAGTGCTAG | 1.91 |
| GACGGTTTCGGGACTGTGGACGTGCTA | 4.84 |

Mixed results
| Substance | target | test | test system | conditions | scale | endpoint | result |
| --- | --- | --- | --- | --- | --- | --- | --- |
| PhoQ, residues 284 288 289 292 302 303 ASTSDA | PhoP, residues 12 14 15 18 19 NHTVL (Escherichia coli, UniProt P23836) | Sort-seq, measured: YFP reporter | E. coli | PhoQ-PhoP variant library, added: 10 µM Mg2+ | relative to: high Mg2+ state, higher = stronger signaling | fold induction | 3.93 |

A few entries again (sample 3):
| Strand | log fluorescence [z-score] |
| --- | --- |
| GACGGTATCCTTCTCATGACGTGCTAG | 0.308 |
